Assay results collected from several papers.
Each numbered part is a random draw from the data of one study; scales do not carry over between parts.

Series 1
Target: Ras GTPase-activating protein-binding protein 1, full length (G3BP1, Homo sapiens, UniProt Q13283)
UniProt Q13283, sequence (whole entry, looked up): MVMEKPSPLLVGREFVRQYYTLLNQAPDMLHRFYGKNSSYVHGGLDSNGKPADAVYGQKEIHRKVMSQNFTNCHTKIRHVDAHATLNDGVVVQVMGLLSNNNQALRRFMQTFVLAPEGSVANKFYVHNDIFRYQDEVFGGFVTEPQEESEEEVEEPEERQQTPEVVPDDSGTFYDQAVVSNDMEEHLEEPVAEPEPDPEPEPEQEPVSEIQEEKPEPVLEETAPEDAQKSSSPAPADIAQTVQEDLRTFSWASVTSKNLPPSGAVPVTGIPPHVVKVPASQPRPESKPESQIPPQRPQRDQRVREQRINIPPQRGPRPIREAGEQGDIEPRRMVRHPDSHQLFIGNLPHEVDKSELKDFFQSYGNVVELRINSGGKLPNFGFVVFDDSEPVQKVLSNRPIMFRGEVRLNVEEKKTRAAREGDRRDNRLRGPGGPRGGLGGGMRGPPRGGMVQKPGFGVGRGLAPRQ
Method: RNA Bind-n-Seq
Molecule type: RNA
Medium: in vitro
Tested at: 200 nM
Notes: whole 134-nt RNA, ends assumed
Added: 150 mM KCl
Reference: input library
Reading: higher = stronger binding
For `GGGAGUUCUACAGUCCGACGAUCCAAGUCCUGUGCUACACAUCGUAUGUACCGAAUCGGGUUUGGGAGGGUUUUUGGGAAAGUAUUAUGUUACGCCGUUCGGAUCUGCACUUCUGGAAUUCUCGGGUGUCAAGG`, the log2 enrichment was 0.479.
`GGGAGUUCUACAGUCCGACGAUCUGGACCCGGAGCUGAUGCAGAAGUUCAGCUGCCUGGGCACCACCGACAAGGACGUGCUCAUCUCCGAGUUCCAGAGGCUGCUCGGCUUCCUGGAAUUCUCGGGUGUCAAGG` has a log2 enrichment of -0.495.
The log2 enrichment of `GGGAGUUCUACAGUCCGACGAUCAGUCCUGUGCUACACAUCGUAUGUACCGAAUCGGGGUGGGGUUUUUUUGGGGAGGGGAAAGUAUUAUGUUACGCCGUUCGGAUCUGCACUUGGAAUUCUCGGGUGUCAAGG` is reported as 0.593.
`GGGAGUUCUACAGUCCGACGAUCCAAGUCCUGUGCUACACAUCGUAUGUACCGAAUCGGCCCCGGCCCCGGGGCCCCGGAAAGUAUUAUGUUACGCCGUUCGGAUCUGCACUUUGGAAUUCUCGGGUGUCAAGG` gave a log2 enrichment of -1.21.
`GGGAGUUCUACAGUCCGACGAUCAGUCCUGUGCUACACAUCGUAUGUACCGAAUCAAACCCCCAAACCCAAAUUUUUAAAAAAGUAUUAUGUUACGCCGUUCGGAUCUGCACUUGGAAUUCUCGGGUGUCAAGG` has a log2 enrichment of -0.176.
For `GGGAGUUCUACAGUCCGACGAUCUUGUCUACAGAACUAGACAGUACGGAUGGUGCCAAAGUUUUUAGUAAACAACCAGGAAGAAUCCAAAGAGUAGCAAGAGGAUCGGGUGUAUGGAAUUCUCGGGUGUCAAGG`, the log2 enrichment was -1.34.
For `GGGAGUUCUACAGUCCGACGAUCCCUGUGCUACACAUCGUAUGUACCGAAUCGGGGAAAGGGGAAAAAGGGGAAAAAAAGGGGAAAGUAUUAUGUUACGCCGUUCGGAUCUGCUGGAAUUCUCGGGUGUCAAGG`, the log2 enrichment was 0.118.
With `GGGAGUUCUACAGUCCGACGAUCCACAGACAACACGCACCCACACAGACACAGAGGGAAGGGGUUGGGAUGGGGACAGGGUGCACAGCAGGGCGGGGUAGGACCCCAGCACCUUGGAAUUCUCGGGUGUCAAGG` the log2 enrichment was 1.9.

Series 2
Target: Interferon regulatory factor 7, full length, phosphomimetic (IRF7, Homo sapiens, UniProt Q92985, residues 1-503, S101K/S471D/S472D/S475D/S476D/S477D/S483D/S484D/S487D)
UniProt Q92985, sequence (whole entry, unmodified, looked up): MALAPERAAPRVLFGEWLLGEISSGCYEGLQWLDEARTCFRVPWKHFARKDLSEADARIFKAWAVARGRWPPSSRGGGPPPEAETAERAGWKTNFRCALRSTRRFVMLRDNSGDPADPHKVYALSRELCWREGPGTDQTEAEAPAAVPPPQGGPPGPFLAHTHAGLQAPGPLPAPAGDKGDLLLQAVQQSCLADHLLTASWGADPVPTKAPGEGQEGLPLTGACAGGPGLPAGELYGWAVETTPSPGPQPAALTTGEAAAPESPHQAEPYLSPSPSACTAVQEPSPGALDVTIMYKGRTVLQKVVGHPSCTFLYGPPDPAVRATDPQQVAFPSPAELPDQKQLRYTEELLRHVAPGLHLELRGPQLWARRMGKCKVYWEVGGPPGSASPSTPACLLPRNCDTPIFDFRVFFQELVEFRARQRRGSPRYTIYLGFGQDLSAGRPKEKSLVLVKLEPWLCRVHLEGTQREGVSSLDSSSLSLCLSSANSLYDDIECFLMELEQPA
Method: protein-binding microarray
Molecule type: double-stranded DNA, one strand shown
Medium: in vitro
Tested at: 250 nM
Notes: 60-bp whole probe
Added: salmon DNA 0.4 mg/ml
Reference: random background probes
Reading: higher = stronger binding
Constant ends, left off below: GCCTAGCAC … GTCTTGATTCGCTTGACGCTGCTG
With `TTAGGTTTCGGGGCTGGGTTAGTGCTA` the log fluorescence was 1.77 z-score.
`CTGGACCCACTTCCAAATGGGTGCTAG` gave a log fluorescence of 1.2 z-score.
`TACGGTCTCCTTTTCCTGACGTGCTAG` has a log fluorescence of 1.47 z-score.
For `TCAAACATCATTGTCATACTGTGCTAG`, the log fluorescence was -0.36 z-score.
The log fluorescence of `TGAGATCTCAGTATCGATTAGTGCTAG` is reported as 0.624 z-score.
For `GATGGTTTCGACTATCGGGACGTGCTA`, the log fluorescence was 6.52 z-score.
`TTCTTTTTTTTCTTTAAAAGGTGCTAG` has a log fluorescence of 1.38 z-score.
For `TTAGGTTCCCTTTTCCTTTAGTGCTAG`, the log fluorescence was 4.5 z-score.
The log fluorescence of `TTAGGACTGGGTCTCGGTCAGTGCTAG` is reported as 0.192 z-score.
`GACGATACCGGGTTTCGAGACGTGCTA` gave a log fluorescence of 2.91 z-score.
`ACTGCTCTGTTGCCTGGTCCTGTGCTA` gave a log fluorescence of -0.284 z-score.
For `TTAGATATCCGTCTCGATTAGTGCTAG`, the log fluorescence was 0.651 z-score.

Series 3
Target: Phosphate system positive regulatory protein PHO4, full length, GST-tagged (PHO4, Saccharomyces cerevisiae, UniProt P07270, residues 1-312)
Method: competition protein-binding microarray
Molecule type: double-stranded DNA, one strand shown
Medium: in vitro
Tested at: 2 µM
Notes: whole 60-bp probe, lowest competitor level
Added: Cbf1 competitor, 0.05 µM
Reading: higher = stronger binding
Construct (chain): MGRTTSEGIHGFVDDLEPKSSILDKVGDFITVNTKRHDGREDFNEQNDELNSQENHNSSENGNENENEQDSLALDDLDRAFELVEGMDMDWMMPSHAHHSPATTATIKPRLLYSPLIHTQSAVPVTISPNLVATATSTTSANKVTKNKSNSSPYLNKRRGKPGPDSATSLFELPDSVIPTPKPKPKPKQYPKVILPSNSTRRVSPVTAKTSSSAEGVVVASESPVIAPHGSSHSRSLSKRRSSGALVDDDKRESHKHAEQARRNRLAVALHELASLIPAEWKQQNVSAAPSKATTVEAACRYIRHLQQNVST
The fluorescence intensity of `CATACCCAACCTTACCACGTGTTTTAAGATATTTGTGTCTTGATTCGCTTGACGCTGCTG` is reported as 19100 a.u.
`AAGCACTGCGGTAGGTGCATGACAGGAGGCCCCTAGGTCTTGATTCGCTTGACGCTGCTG` gave a fluorescence intensity of 5360 a.u.
`CGTCCTAGTGATTGTCACTCCACTTCCATGAGGAAGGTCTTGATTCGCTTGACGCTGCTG` gave a fluorescence intensity of 4390 a.u.
With `CGACTTTTTTCTTTTCACCTGCAGCTTGAGCCAAACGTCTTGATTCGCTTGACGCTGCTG` the fluorescence intensity was 3470 a.u.
The fluorescence intensity of `GCAGTGCCATCCCGTCACATGACAACACCACTTTAAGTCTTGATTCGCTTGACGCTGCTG` is reported as 7650 a.u.
`GTAATATAGCTTTGCCACGTGCGATTTTTGGGGATAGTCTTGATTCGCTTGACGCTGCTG` has a fluorescence intensity of 20700 a.u.
`TCAGCTCTTAGATGTAATGTGACGGCAGCCATTTTTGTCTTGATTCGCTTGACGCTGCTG` has a fluorescence intensity of 3810 a.u.

Other studies, line by line
For `PhoQ, residues 284 288 289 292 302 303 NLMGRA`, the fold induction was 18.4 (PhoP, residues 12 14 15 18 19 TQAIL (Escherichia coli, UniProt P23836); Sort-seq, measured: YFP reporter; E. coli; PhoQ-PhoP variant library, added: 10 µM Mg2+; reference: high Mg2+ state, higher = stronger signaling).

Excerpt of the above (series 1):
`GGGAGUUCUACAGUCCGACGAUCCAAGUCCUGUGCUACACAUCGUAUGUACCGAAUCGGCCCCGGCCCCGGGGCCCCGGAAAGUAUUAUGUUACGCCGUUCGGAUCUGCACUUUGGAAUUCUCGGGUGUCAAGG` gave a log2 enrichment of -1.21.
For `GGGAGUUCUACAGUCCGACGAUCUUGUCUACAGAACUAGACAGUACGGAUGGUGCCAAAGUUUUUAGUAAACAACCAGGAAGAAUCCAAAGAGUAGCAAGAGGAUCGGGUGUAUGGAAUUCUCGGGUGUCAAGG`, the log2 enrichment was -1.34.
For `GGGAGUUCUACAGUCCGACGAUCCCUGUGCUACACAUCGUAUGUACCGAAUCGGGGAAAGGGGAAAAAGGGGAAAAAAAGGGGAAAGUAUUAUGUUACGCCGUUCGGAUCUGCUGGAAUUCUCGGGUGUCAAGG`, the log2 enrichment was 0.118.
